Experimental data pooled from the literature.
Compare with care: the assays were run in different laboratories. ± marks the error that the study gave.
Sample: plasma

SMILES | system | setting | AUC(0-t)
COc1cccc(CN)c1O | C57BL/6N mouse, male | intraperitoneal, 200 mg/kg | 361 ± 42 µg·h/mL
CNCc1ccc(-c2[nH]c3cc(F)cc4c3c2CCNC4=O)cc1 | human patients | oral, 480 mg twice daily, day 1, 12 h, arithmetic mean | 8.81 µg·h/mL
CCCCC1(CCCC)CN(c2ccccc2)c2cc(SC)c(OCC(=O)N[C@@H](C(=O)NCC(=O)O)c3ccccc3)cc2S(=O)(=O)C1 | human | oral, 20 mg, before breakfast | 0.00294 µg·h/mL
N=C(N)NCCC[C@H](NCC(=O)[C@@H](O)[C@H](O)[C@H](O)CO)C(=O)O | C57BL/6J mouse | intraperitoneal, 40 mM, 2.5 µL/g | 81 µM·h
C#C[C@]1(CO)O[C@@H](n2cnc3c(N)nc(F)nc32)C[C@@H]1O | human | oral, 15 mg, single dose, fasted | 1.41 µM·h
Nc1ccn([C@@H]2O[C@H](CO)[C@@H](O)C2(F)F)c(=O)n1 | BALB/c mouse, female | intravenous, 4 mg/kg | 10.9 ± 2.55 µg·h/mL
Cc1ncsc1-c1ccc(CNC(=O)[C@@H]2C[C@@H](O)CN2C(=O)[C@@H](NC(=O)CCCCCCCCCCNC(=O)O[C@H]2C[C@@H](C)C=C3C=C[C@H](C)[C@H](CC[C@@H]4C[C@@H](O)CC(=O)O4)[C@H]32)C(C)(C)C)cc1 | C57BL/6 mouse | oral, 60 mg/kg, single dose | 5 µM·h
CNc1nc(Nc2ccc(-n3cnc(C)n3)c(OC)c2)nc2c1CC[C@H]2c1ccc(F)cc1 | human | oral, 100 mg, single dose, healthy volunteers | 4.59 µg·h/mL
CCCC[C@H](NC(C)=O)C(=O)N[C@H]1CCC(=O)NC[C@@H](C(=O)N[C@@H](Cc2c[nH]c3ccccc23)C(N)=O)NC(=O)[C@H](CCCNC(=N)N)NC(=O)[C@@H](Cc2ccccc2)NC(=O)[C@H](Cc2c[nH]cn2)NC1=O | CD Sprague-Dawley rat, female | subcutaneous, 25.0 mg/kg/day, day 14, truncated curve, 3 points | 1.71 µg·h/mL
